Measured values collected from several papers.
Every numbered part comes from another study and shows a few of its results, in no order. Positions count from the first letter of the parent shown.

Sample 1 — observed: enzyme activity; action: inhibitor; concentration: 0.5 µM; reference: control
Target: Casein kinase I isoform gamma-1 (CSNK1G1, Homo sapiens, UniProt Q9HCP0)
Sequence of UniProt Q9HCP0 (whole entry, looked up): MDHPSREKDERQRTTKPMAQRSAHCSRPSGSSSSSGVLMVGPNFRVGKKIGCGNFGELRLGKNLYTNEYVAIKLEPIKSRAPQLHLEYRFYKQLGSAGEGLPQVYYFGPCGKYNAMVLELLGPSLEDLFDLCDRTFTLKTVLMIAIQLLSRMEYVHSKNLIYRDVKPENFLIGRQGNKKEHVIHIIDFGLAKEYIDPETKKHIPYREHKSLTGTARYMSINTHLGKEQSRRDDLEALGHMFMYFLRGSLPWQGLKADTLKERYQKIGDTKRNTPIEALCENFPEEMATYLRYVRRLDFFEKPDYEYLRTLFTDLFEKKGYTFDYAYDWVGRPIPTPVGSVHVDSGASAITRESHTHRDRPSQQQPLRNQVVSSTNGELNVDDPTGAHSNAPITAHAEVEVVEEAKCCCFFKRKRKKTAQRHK
| Compound | remaining activity |
| --- | --- |
| O=C(CCCc1ccc(-c2ccccc2F)cc1)Nc1ccc(O)cc1 | 104% |
| Cc1ccc(Nc2nccc(N(C)c3ccc4c(C)n(C)nc4c3)n2)cc1S(N)(=O)=O | 100% |
| Cc1ccc(NC(=O)c2ccc(CN3CCN(C)CC3)cc2)cc1Nc1nc(-c2cccnc2)cs1 | 92.4% |
| Cc1nc(-c2ccccc2)c(-c2ccncc2)o1 | 91.1% |
| COc1ccc(C(=O)Nc2sc3c(c2C(N)=O)CCCC3)cc1OC | 90.1% |
| O=c1c2ccccc2[nH]c(=S)n1CCN1CCC(=C(c2ccc(F)cc2)c2ccc(F)cc2)CC1 | 92.5% |
| COc1cc2ncnc(Nc3ccc(Oc4ccccc4)cc3)c2cc1OC | 90% |
| O=C(Nc1cccc(Nc2cc(Nc3cccc(C(F)(F)F)c3)ncn2)c1)C1CC1 | 94.8% |
| CN(C)c1ccc(C=C2C(=O)Nc3ccccc32)cc1 | 93% |
| N#CC(C#N)=C(N)/C(C#N)=C/c1ccc(O)cc1 | 93.4% |
| Cn1c2ccccc2c2c3c(c4c5ccccc5n(CCC#N)c4c21)CNC3=O | 93.3% |
| Nc1ccc2ncnc(NCCc3ccc(Oc4ccccc4)cc3)c2c1 | 97.6% |
| CC(C)[C@H](CO)Nc1nc(Nc2cc(N)cc(Cl)c2)c2ncn(C(C)C)c2n1 | 26.4% |
| O=C(O)c1ccc2c3c1cccc3c(=O)n1c3ccccc3nc21 | 99.5% |
| COc1ccc(CNC(=O)Nc2ncc([N+](=O)[O-])s2)cc1 | 97.8% |

Sample 2 — target: CCNB1, cyclin fold, Cln2 fusion (human); method: yeast growth competition, sequencing; medium: yeast; notes: weak parent motif; reference: not given; reading: higher = stronger binding
Starting sequence: WEE1 docking peptide (human); HKTFRKLRLFDTP
| Variant | normalised enrichment score |
| --- | --- |
| L9E | 0.568 |
| D11F | 0.347 |
| T3C | -0.121 |
| R5Y | 0.197 |
| K6P | 1.43 |
| L9H | 0.0764 |
| T3F | 0.106 |
| D11Y | 0.228 |

Sample 3 — method: universal PBM; form: double-stranded DNA, one strand shown; medium: in vitro; concentration: not given; reading: higher = stronger binding
Target: Sal-like protein 4, full length isoform B (SALL4, Homo sapiens, UniProt Q9UJQ4-2, residues 1-616)
Notes: 8-mer, flanks averaged, mean of replicates
Target sequence (chain): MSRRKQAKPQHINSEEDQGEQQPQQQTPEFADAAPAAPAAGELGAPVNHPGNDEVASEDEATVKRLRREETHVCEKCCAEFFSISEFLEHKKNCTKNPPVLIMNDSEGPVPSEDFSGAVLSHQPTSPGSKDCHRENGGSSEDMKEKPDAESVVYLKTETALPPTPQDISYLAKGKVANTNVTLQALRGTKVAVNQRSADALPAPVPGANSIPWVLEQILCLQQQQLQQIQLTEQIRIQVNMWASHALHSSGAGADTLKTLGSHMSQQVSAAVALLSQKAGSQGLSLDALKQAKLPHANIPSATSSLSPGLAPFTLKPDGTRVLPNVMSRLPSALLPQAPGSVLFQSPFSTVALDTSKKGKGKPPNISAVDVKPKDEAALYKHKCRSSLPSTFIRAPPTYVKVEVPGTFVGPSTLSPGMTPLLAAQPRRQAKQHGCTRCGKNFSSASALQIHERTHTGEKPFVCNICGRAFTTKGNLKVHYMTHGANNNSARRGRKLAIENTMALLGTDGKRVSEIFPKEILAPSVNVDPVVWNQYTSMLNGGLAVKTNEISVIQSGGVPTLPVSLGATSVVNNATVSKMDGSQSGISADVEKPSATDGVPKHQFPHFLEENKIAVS
| Sequence | E-score |
| --- | --- |
| GCCAGCCC | -0.354 |
| CACCTCAA | -0.11 |
| CTATGTCC | -0.054 |
| GAGAAATC | 0.0675 |
| GACGCCTC | -0.184 |
| GCCTGTGA | -0.169 |
| CGCGTCTC | -0.154 |
| TACGGATA | 0.217 |

Further values, each from its own experiment
| SMILES | cell line | test | conditions | quantity | value |
| --- | --- | --- | --- | --- | --- |
| CC(=O)Nc1c(F)cc(C(=O)N[C@H]2CC[C@H](O)CC2)cc1O[C@@H](C)c1ccccc1 | HEK293T | high-content imaging | concentration not given, 24 h, recommended concentration | tubulin stain change | 78% |

Some of these lines once more (sample 1):
| Compound | remaining activity |
| --- | --- |
| CN(C)c1ccc(C=C2C(=O)Nc3ccccc32)cc1 | 93% |
| O=c1c2ccccc2[nH]c(=S)n1CCN1CCC(=C(c2ccc(F)cc2)c2ccc(F)cc2)CC1 | 92.5% |
| O=C(CCCc1ccc(-c2ccccc2F)cc1)Nc1ccc(O)cc1 | 104% |
| O=C(O)c1ccc2c3c1cccc3c(=O)n1c3ccccc3nc21 | 99.5% |
